Published values from different studies.
Every numbered part comes from another study and shows a few of its results, in no order. Substitutions count along the parent as printed.

Series 1 — technique: RNA Bind-n-Seq; form: RNA; matrix: in vitro; tested at: 365 nM; reference: no-protein control; direction: higher = stronger binding
Target: RNA binding protein fox-1 homolog 2, RRM domain, GST-SBP tag (RBFOX2, Homo sapiens, UniProt O43251-10, residues 100-194)
Notes: natural RNA segment, single round, ends assumed
Residues (chain): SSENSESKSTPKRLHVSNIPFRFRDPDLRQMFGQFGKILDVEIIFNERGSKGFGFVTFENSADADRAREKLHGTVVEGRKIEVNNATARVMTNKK
For `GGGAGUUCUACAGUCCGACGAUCUUAGGAAGGGUUUUAUACAGACAGGUUAAAGGGCUCUGGUUUCAAGUCCCUUGUCCAUGCUGCACUGGGGCAGGCCGGUUGUUUGUGGUUUGUCCUACCAGCCACAGCUCUGGAAUUCUCGGGUGCCAA`, “RBNS enrichment (R)” read 1.05.
`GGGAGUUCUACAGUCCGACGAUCAUUACAAACAAUAAGAACAAGUUUUGGCAGCCAUGAUAAUAGGUCAUAUGUUGUGUUUGGUUCAAUUUUUUUUCCGUAAAUGUCUGCACUGAGGAUUUCUUUUUGGUUUGUGGAAUUCUCGGGUGCCAA` — result for “RBNS enrichment (R)”: 3.18.
`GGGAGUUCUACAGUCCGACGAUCGUCACCCAGAGUAGCGGCUGCCCUGGUAGCCGAGAGCAGGCAAGGCUCUAAGAGCACUGUGCUUGGGAAAGUUGUGAUUAACAGCUUUUAAGAGGGCCCCUACCCCCAGUUGGAAUUCUCGGGUGCCAA` — result for “RBNS enrichment (R)”: 0.254.
For `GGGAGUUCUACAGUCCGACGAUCGGGUCCCCGGGAGCACACGAACCCUGCCAGGCCCCCGCUGGCUCCUCCAGGCACGUCCCGGACCUGUGGGGCCCCAGAGAGGGGACAUUUCCCUCCUGGGAGAGAAGGAGUGGAAUUCUCGGGUGCCAA`, “RBNS enrichment (R)” read 0.508.
`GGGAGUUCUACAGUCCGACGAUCCGUGAUGAGAGCCUGUAGCUCGUGACACACUUCUUUGGGUUACUCUGCUACAUUUCUGUAAGAGAGUUAAGUCUGAGAACUAGUCUCGCAAGUGUAUCUGUUAGUACACUUGGAAUUCUCGGGUGCCAA`: “RBNS enrichment (R)” 0.37.
`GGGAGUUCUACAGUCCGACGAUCGAAGUACACAUUUGGCCCAAAUUCACCGGGAUAAGUGAGAACAGCCAGAAGCAUAAAAUGUGAUGAAGGUUUCUCCUGGGAACCUUAUUUUACUCUUCAUUUCAGGGUUUUGGAAUUCUCGGGUGCCAA`: “RBNS enrichment (R)” 0.334.
For `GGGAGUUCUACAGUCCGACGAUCGUGUUGGAAGGAGUGGCCUGGCCAGGCAGGUUGAUGUAAGGCUAUGGGAGACCCAAGGGGAACACAUGCUGCCUCUGCUGAAAGACCCUGGGUUUUUCUUGGAAGAAAGGUGGAAUUCUCGGGUGCCAA`, “RBNS enrichment (R)” read 0.776.
For `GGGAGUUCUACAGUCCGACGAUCAUAAUACAUGUUCACUUUAUUUUGUAAAAUUGGGUUGAGAGGAAACUAAUGGAGUUUCAUUGUAACUGUCCUUUGUAAUUUAUAUAAAUGUAUUAUUUUCCUAUAUCCUUUGGAAUUCUCGGGUGCCAA`, “RBNS enrichment (R)” read 0.672.
For `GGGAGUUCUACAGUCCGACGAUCCCAGCUCCCUGCUCACUCUUCUCUCAGCCAAAGCCUCCAAAGGGACUAGAGAGAAGCCUCCUGCUCCCCUCGCCUGCACACCCCCUUUCAGAGGGCCACUGGGUUAGGACUGGAAUUCUCGGGUGCCAA`, “RBNS enrichment (R)” read 0.579.
For `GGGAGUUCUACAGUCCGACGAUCAUGUAGCUAUGGCUGUCCUUGAAUUCUCUCUGUAAACCAGGCUGCCCUUGAACUUGUGAUCCUUCUGCCUCAGUUGCCUCCCAAAUUAUAGGGUUAUGUCACCAACUUGCUGGAAUUCUCGGGUGCCAA`, “RBNS enrichment (R)” read 0.698.
Under “RBNS enrichment (R)”, `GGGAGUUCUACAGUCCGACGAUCAUCGGCUGGAGCAUGGGACCAUAGCCCCUGCCCAGGAGCCGUACCCUCGGACCACAGUGGCUCUGUAUGGCCAGGAACUGGGACUCGAGCUUUCAGAUUCUCAACUAGCCUGGAAUUCUCGGGUGCCAA` is recorded as 0.416.
`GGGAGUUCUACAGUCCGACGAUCCCUUCCAGAAUCCAGGCCCCAUCUCCCCCAACUCCACAGCCCCUCCCGAGCCUCAAGGCAAGUCCAGGACUCAGACCGGGGAGGCCCGGGCCAGCAGCUCCCAGUGUGACUGGAAUUCUCGGGUGCCAA` — result for “RBNS enrichment (R)”: 0.292.

Series 2 — technique: EMSA with sequencing; form: double-stranded DNA, one strand shown; matrix: in vitro; tested at: 10 and 20 nM; reference: negative control set to 0; direction: higher = stronger binding
Target: Hepatocyte nuclear factor 3-alpha (Foxa1, Mus musculus, UniProt P35582, residues 1-468, full length assumed)
Notes: whole designed probe, mean of two concentrations, ends assumed
Target sequence (chain): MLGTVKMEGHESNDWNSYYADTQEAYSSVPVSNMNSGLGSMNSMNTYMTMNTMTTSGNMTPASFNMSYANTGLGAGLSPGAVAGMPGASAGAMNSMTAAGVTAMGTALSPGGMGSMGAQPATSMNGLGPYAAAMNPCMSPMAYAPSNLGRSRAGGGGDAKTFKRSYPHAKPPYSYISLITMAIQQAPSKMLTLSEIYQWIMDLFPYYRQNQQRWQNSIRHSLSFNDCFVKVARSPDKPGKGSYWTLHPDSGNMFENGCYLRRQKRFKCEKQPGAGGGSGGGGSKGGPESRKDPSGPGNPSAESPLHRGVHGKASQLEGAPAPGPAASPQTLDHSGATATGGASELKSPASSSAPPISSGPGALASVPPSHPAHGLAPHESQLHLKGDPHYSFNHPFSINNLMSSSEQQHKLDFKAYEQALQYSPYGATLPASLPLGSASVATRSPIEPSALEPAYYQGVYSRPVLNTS
`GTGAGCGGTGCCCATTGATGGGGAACATCTTCCCCCTCTTCCTTGCCCCACCAGCTCACCTACGGGGGTTATTTGCAGATAGGAAAATAAATAAAGCCGGCATTCGTTAACCCTCTTCACGCGCATACTGCTGTTTGCTCTGCATCTAACATGGTCCTTACGCGACGCCAGGCTCCGGGAGAGCAAAGCACCGTGTCAGGCGCATGATCCGGGCTCGCCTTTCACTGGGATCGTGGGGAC`: “normalised bound fraction” 0.349 ratio.
Under “normalised bound fraction”, `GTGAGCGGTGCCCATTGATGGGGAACCTCTGAATGCAGATCACAATCTTTGTTAGTCATCTTTATCTTACTGGTTACTTTGCTACTCAAAGTACACATTTCCTATGGTGGAAACTCCCTTGTTTACTTATTCTTCCTGACCCAGGTTTAAAAGGCCTGCCTAACCATCTCAGTAGGCTTTTCCTAGCTGATATCCTTCTGAGCTGTGGTAGAGAAAGGGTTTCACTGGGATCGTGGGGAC` is recorded as 0.403 ratio.
`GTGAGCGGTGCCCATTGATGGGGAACATCTTCCCCCTCTTCCTTGCCCCACCAGCTCACCTTCCCGGGTTATTTGCACAAAGGAAAATAAATAAAGCCGGCATTCGTTAACCCTCTTCTGGCGCAAACTGCTGTTTGCTCTGCATGAATCATGGTCCTTACGCGAGGCGTGGCTCCGGGAGAGCAAAGCACCGTGTCAGGCGCATGATCCGGGGTGGCCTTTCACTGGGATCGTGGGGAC`: “normalised bound fraction” 0.368 ratio.
`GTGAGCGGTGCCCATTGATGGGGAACCTTGTTGTTCAACTTGGAGCAAATGCTCTGTTTATCATGTTGTCTTGAGAGGGGCCACAGCTAGGCATTCCAGCCCAGCAGTGTGGCCTTATGTAATCTTGGGTGGTTGAAAGTGATGGGATAAGGAAGCCAAAACTACCAACAGAGATGAGATTTTTCTGTATTTTATTCTTCCTGAGCAGCAGAGCCCGTGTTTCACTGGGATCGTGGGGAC` — result for “normalised bound fraction”: -0.00518 ratio.
`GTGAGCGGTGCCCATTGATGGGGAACCCCTCAAGACACATAATATTTGCAGAATTCTGTGGACAGAGGATTTAGTACACACTGCTTTCATCCTGTGATTGCCCTAAGTACTTTCAGAAATGTAAACAGTCCTGACACATGTGGTCTTTGAATATGGTCAAACACCTCATTCTTCAGCTTTGGTATCTCATAACAAATTGTTGCATAAAGTATGAAAAATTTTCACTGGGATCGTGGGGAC`: “normalised bound fraction” 0.36 ratio.

Series 3 — technique: DHFR PCA, dose-response; matrix: yeast; notes: Hill fit, mean, not affinity; with: (+)-ABA, dose series; direction: lower = more sensitive
Target: ABI1, truncated, D143A, DHFR fusion (Arabidopsis thaliana, UniProt P49597)
Starting sequence: PYL1, truncated, DHFR fusion (Arabidopsis thaliana, UniProt Q8VZS8); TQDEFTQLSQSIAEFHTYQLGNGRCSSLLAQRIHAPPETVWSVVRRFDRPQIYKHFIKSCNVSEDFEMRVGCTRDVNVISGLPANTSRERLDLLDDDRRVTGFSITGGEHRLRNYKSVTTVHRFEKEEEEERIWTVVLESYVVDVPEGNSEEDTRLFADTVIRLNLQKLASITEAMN
The ABA EC50 of `T173P` is reported as 525 µM.
`G81K` has an ABA EC50 of 159 µM.
The ABA EC50 of `R46S` is reported as 5.93 µM.
`L8K` gave an ABA EC50 of 67 µM.
`R132W` gave an ABA EC50 of 10.3 µM.
With `G21C` the ABA EC50 was 3.21 µM.
With `F15I` the ABA EC50 was 39.2 µM.
The ABA EC50 of `T106P` is reported as 461 µM.
The ABA EC50 of `S171T` is reported as 1.53 µM.
The ABA EC50 of `E131D` is reported as 1.14 µM.
`D144V` has an ABA EC50 of 116 µM.
`T39I` has an ABA EC50 of 5.93 µM.
The ABA EC50 of `V143F` is reported as 839 µM.
`V78T` gave an ABA EC50 of 26.6 µM.
`F5P` has an ABA EC50 of 8.03 µM.
For `A170D`, the ABA EC50 was 337 µM.
`C72V` gave an ABA EC50 of 2.65 µM.

Series 4 — target: CCNB3, cyclin fold, Cln2 fusion (human); technique: yeast growth competition, sequencing; matrix: yeast; notes: weak parent motif; reference: not given; direction: higher = stronger binding
Starting sequence: MICAL3 docking peptide (human); LQLRRQLSFSEDS
`Q2M`: “normalised enrichment score” 0.108.
Under “normalised enrichment score”, `F9Y` is recorded as -0.19.
`Q6D` — result for “normalised enrichment score”: -0.0704.
`F9N`: “normalised enrichment score” -0.278.
For `S8W`, “normalised enrichment score” read 0.064.
`E11V` — result for “normalised enrichment score”: 0.165.
`L7Y`: “normalised enrichment score” -0.0884.
`E11P` — result for “normalised enrichment score”: 0.625.
Under “normalised enrichment score”, `Q2Y` is recorded as 0.166.
`Q2V` — result for “normalised enrichment score”: 0.537.
Under “normalised enrichment score”, `E11R` is recorded as 0.546.
Under “normalised enrichment score”, `D12Y` is recorded as -0.0108.
`R5E`: “normalised enrichment score” 0.16.
Under “normalised enrichment score”, `Q2D` is recorded as 0.185.
`Q6K` — result for “normalised enrichment score”: 0.869.
For `D12N`, “normalised enrichment score” read 0.598.
`Q2A` — result for “normalised enrichment score”: -0.0465.
`D12W`: “normalised enrichment score” 0.204.

Series 5 — target: HLF, bZIP domain (human); technique: DHFR protein complementation; matrix: yeast; reference: wild-type JUN-FOS pair; direction: higher = stronger binding
Notes: single substitutions, most at no-binding floor
Starting sequence: JUN, bZIP domain (human); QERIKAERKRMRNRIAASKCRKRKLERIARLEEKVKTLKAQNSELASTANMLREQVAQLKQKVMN; partner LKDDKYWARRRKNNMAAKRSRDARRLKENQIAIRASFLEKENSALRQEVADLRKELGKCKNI
`Q55N` has a binding fitness of -1.38 natural log.
`Q41A` has a binding fitness of -1.44 natural log.
`S43F` has a binding fitness of -1.45 natural log.
For `L31V`, the binding fitness was -1.47 natural log.
For `Q41I`, the binding fitness was -1.45 natural log.
The binding fitness of `N42H` is reported as -1.32 natural log.
The binding fitness of `Q41H` is reported as -1.5 natural log.
The binding fitness of `A29E` is reported as -1.45 natural log.
With `A46S` the binding fitness was -1.27 natural log.
For `Q41R`, the binding fitness was -1.26 natural log.

Some of these lines once more (series 3):
The ABA EC50 of `S171T` is reported as 1.53 µM.
The ABA EC50 of `R46S` is reported as 5.93 µM.
`G81K` has an ABA EC50 of 159 µM.
